Results collected from several papers.
Protocols differ between the studies behind these lines. ± marks the error that the study gave.

O=C([O-])CN1CCN(CC(=O)[O-])CCN(C(CCC(=O)NCCCCCN(CCCC[C@H](NC(=O)N[C@@H](CCC(=O)O)C(=O)O)C(=O)O)C(=O)c2ccc(I)cc2)C(=O)O)CCN(CC(=O)[O-])CC1.[68Ga+3] (stereo partly shown)  safety and tolerability (healthy volunteers and patients; dose not given): not toxic
COc1ccnc(C[S+]([O-])c2nc3cc(-n4cccc4)ccc3[nH]2)c1C (stereo not shown)  Cmax ratio (male Sprague Dawley rats, plasma; oral, 5 mg/kg ilaprazole racemate; relative to: compound over R-ilaprazole): 1.79
CC/C=C\C/C=C\C/C=C\C/C=C\C/C=C\CCCCOC(CC)C(=O)O (stereo not shown)  tissue concentration (14C radiolabel; Wistar rats male, muscle; oral, 100 mg/kg, 8 h): 4.8 µg/g
COc1cc(OC)cc(C2=C3C(C)=C(I)C(/C=C/c4cccs4)=[N+]3[B-](F)(F)n3c(/C=C/c4cccs4)c(I)c(C)c32)c1  emission maximum (DMSO): 692 nm
CCC(=O)N[C@@H](C)C(=O)OCC(=O)N[C@@H](C)C(=O)O  depolymerization half-life (water; pH 7, 37 °C): 51.9 h
CC[C@H](C)[C@H](NC(=O)[C@H](CC(C)C)NC(=O)[C@H](Cc1c[nH]c2ccccc12)NC(=O)[C@H](C)NC(=O)[C@@H](NC(=O)[C@H](Cc1ccccc1)NC(=O)[C@H](CC(=O)O)NC(=O)[C@H](CCCNC(=N)N)NC(=O)[C@H](C)NC(=O)[C@H](C)NC(=O)[C@H](CC(C)C)NC(=O)[C@H](C)NC(=O)[C@H](CC(=O)O)NC(=O)[C@H](CC(C)C)NC(=O)[C@@H](NC(=O)[C@@H](NC(=O)[C@H](C)NC(=O)[C@H](CC(C)C)NC(=O)[C@H](CCC(=O)O)NC(=O)[C@H](CO)NC(=O)[C@H](CO)NC(=O)[C@H](Cc1ccccc1)NC(=O)[C@@H](NC(=O)CNC(=O)[C@H](CCC(=O)O)NC(=O)CNC(=O)[C@@H](N)Cc1c[nH]cn1)[C@@H](C)O)[C@@H](C)O)[C@@H](C)CC)[C@@H](C)CC)C(=O)N[C@@H](C)C(=O)N[C@H](C(=O)N[C@@H](CCCCN)C(=O)N[C@H](C(=O)N[C@H](C(=O)N[C@@H](CC(=O)O)C(=O)N[C@@H](CCCCN)C(=O)N[C@@H](CCCCN)C(=O)O)[C@@H](C)O)[C@@H](C)CC)[C@@H](C)O  AUClast (immunoaffinity LC-MS/MS; healthy human subjects, plasma; intravenous infusion, 1 mg single dose, infused over 15 min): 0.782 nM·h
COCCOCCOCCOCCOCCOCCOCCOCCC(=O)NCCCc1cc2cc3nc(cc4[nH]c(cc5nc(c(OC)c1[nH]2)C(=O)C5(C)C)cc4CCc1ccc(C(=O)O)cc1)CC3(C)C  B band absorption maximum (water with 5% DMF; room temperature): 411 nm
O=C(Cn1c(=O)c(Cc2ccccc2)nc2ccccc21)NN1C(=O)c2ccccc2C1=O  safe concentration (MTT; rat primary colonocytes, Albino rat, male; 72 h, concentration at 100% viability): 0.258 ± 0.018 µM
CCCC(CCC)NC(=O)c1ccc(O)c(O)c1  Cmax ratio (female Sprague-Dawley rats, plasma; oral, 200 mg/kg of parent drug; relative to: 200 over 20 mg/kg dose): 12.1
COc1cc2c(cc1OC)CN(CCCCn1ccc3cc(OCC[18F])ccc31)C2  uptake (ICR mice, male, stomach; intravenous, 60 min): 2.54 ± 0.43 %ID/organ
CN1CCC[C@]1(C)/C=C/S(=O)(=O)NC(=O)Nc1c2c(cc3c1CCC3)CCC2  AUC(0-tau) (human, plasma; oral, 50 mg twice daily, day 14, tau 12 h, multiple ascending dose): 51200 ng·h/mL
C=C(C)C(=O)NCCCCCC(=O)N[C@@H](Cc1ccccc1)C(=O)N[C@@H](CCCCN)C(=O)N[C@@H](Cc1ccccc1)C(=O)N[C@@H](CC(C)C)C(=O)NCCCCCC(=O)N[C@@H](CCCCN)C(=O)N[C@@H](CCCCN)C(=O)N[C@@H](CCCCN)C(=O)N[C@@H](CCCCN)C(=O)N[C@@H](CCCCN)C(=O)N[C@@H](CCCCN)C(=O)N[C@@H](CCCCN)C(=O)N[C@@H](CCCCN)C(=O)N[C@@H](CCCCN)C(=O)N[C@@H](CCCCN)C(N)=O  time to complete degradation (MALDI-TOF MS; mouse serum; 37 °C): ≤ 1 h
COCCOCCOCCC(=O)Oc1ccc(CC(=O)N/C=C/c2ccc(C(F)(F)F)cc2)cc1OC  moderate pain-producing concentration (eye-wiping; C57BL/6 mice, both sexes; ocular instillation, 1 min): 0.302 mg/mL
NCCCC(=O)OCC(=O)c1ccc(O)c(C(F)(F)F)c1.O=C(O)C(F)(F)F  quantum yield (photolysis, item: rearranged acid appearance; aqueous HEPES buffer with LiClO4; pH 7.3): 0.1
Cc1cc2c(NC(=O)N[C@@H]3CC(C)(C)Oc4c(OC(F)(F)F)cccc43)cccc2cn1  hypothermia duration (telemetry; male Sprague-Dawley rats; oral, 100 µmol/kg): ~13 h
NC[C@@H](C(=O)Nc1ccc(-c2cn[nH]c2)cc1)c1ccccc1  conjunctival redness score (OECD 405; New Zealand White rabbit; topical, 0.1 %, 56 h, day 3; direction not given): 0
NC12CNCCNCC(NCc3ccc(CNC(=O)CCCC(=O)NCc4ccc(-c5nncnn5)cc4)cc3)(CNCCNC1)CNCCNC2.[64Cu+2]  mean absorbed dose (OLINDA dosimetry; muscle; 48 h pretargeting interval, together with: huA33-TCO pretargeting): 0.0163 rad/mCi
NCCCC(=O)OCC(=O)c1ccc(O)cc1F.O=C(O)C(F)(F)F  quantum yield (photolysis, item: GABA appearance; aqueous HEPES buffer with LiClO4; pH 8.2): 0.06
Cn1c(=O)oc2ccc(-c3ccc(CC(C#N)NC(=O)C4CNCCCO4)c(F)c3)cc21 (stereo not shown)  abdominal pain incidence (human; oral, 10 mg once daily, TEAE, multiple ascending dose): 11.1%
CC(C)c1cnc(-c2cc(Cl)ccc2F)cc1Nc1ccncc1C(=O)NC(CO)CO  patients with treatment-related adverse event (monotherapy, item: rash; human patients; oral, dose not given, grade 2, phase I A): 0%
O=C(O)[C@@H]1C[C@@H](O)CN1C(=O)[C@@H]1CCCN1  log beta (potentiometric titration; 40 °C, MAH-2 complex, together with: Fe(III)): 4.06
CC(C)[C@H](NC(=O)[C@@H]1CCCN1C(=O)[C@H](CCCNC(=N)N)NC(=O)[C@H](CS)NC(=O)[C@H](Cc1c[nH]c2ccccc12)NC(=O)[C@H](CCCNC(=N)N)NC(=O)[C@@H](Cc1ccccc1)NC(=O)[C@H](Cc1c[nH]cn1)NC(=O)[C@H](CCC(=O)O)NC(=O)[C@H](CS)NC(=O)[C@H](CS)NC(=O)CNC(=O)[C@@H]1CC(=O)N[C@@H](CCCNC(=N)N)C(=O)NCC(=O)N[C@@H](CC(=O)O)C(=O)N[C@H](Cc2ccc(O)cc2)C(=O)N1)C(N)=O [technetium-99m labelled]  tumour to tissue ratio (C57 mouse, female, B16/F1 melanoma; intravenous, 0.037 MBq, 24 h; relative to: tumour over muscle): 18.5
CC(C)[C@H](NC(=O)CNC(=O)[C@H](CCC(N)=O)NC(=O)[C@H](C)N)C(=O)O  AUC(0-last) (LC-MS/MS; human, plasma; intravenous, 20 mg/kg three times daily, day 3, first dose, 10 min infusion, geometric mean): 565 ng·h/mL
CCCCCCc1ccc(Oc2ccccc2C#N)c(O)c1  clearance (CD-1 mice, plasma; subcutaneous, 100 mg/kg): 123 mL/min/kg
Cc1ccc(/N=N/c2c(O)ccc3ccccc23)c(C)c1  measured concentration (rat whole blood; 5.0 µg/L, 30 days, -20 °C, long-term storage): 4.99 µg/L
Brc1ccc(Nc2nc(NN=Cc3c[nH]c4ccccc34)nc(N3CCOCC3)n2)cc1  metabolic bioavailability (human liver microsomes; 0.1 µM, pH 7.4): 100%
N#Cc1cnc2cc(OCC3CCNCC3)c(F)cc2c1Nc1cc(F)c(OCc2cccc(Cl)n2)cc1Cl  half-life (male beagle dog, plasma; oral, 5 mg/kg): 6.7 h
CC(C)(O)c1ncc([S@](N)(=O)=NC(=O)Nc2c3c(cc4c2CCC4)CCC3)s1  subjects with general disorders (healthy human subjects, all study parts; oral, dose not given): 27%
CCCC[C@@H]1NC(=O)[C@@H](NC(=O)[C@H](CCC(=O)O)NC(=O)CNC(=O)CN2CCN(CC(=O)O)CCN(CC(=O)O)CCN(CC(=O)O)CC2)CCCCNC(=O)C[C@@H](C(N)=O)NC(=O)[C@H](C(C)C)NC(=O)[C@@H]2CCCN2C(=O)[C@H](CCCNC(=N)N)NC(=O)CNC(=O)[C@H](Cc2c[nH]c3ccccc23)NC(=O)[C@H](CCCNC(=N)N)NC(=O)[C@@H](Cc2ccccc2)NC(=O)[C@H](Cc2c[nH]cn2)NC(=O)[C@H](CCC(=O)O)NC1=O [gallium-67 labelled]  tumour to kidney ratio (C57 mice with B16/F1 melanoma; intravenous, 0.037 MBq/mouse, 0.5 h; relative to: tumour over kidney): 0.36
COc1cc(NC(C)=O)c2c(c1O)-c1c(OC)c(OC)cc3c1C(C2)N(C)CC3 (stereo not shown)  remaining compound (rat kidney homogenate; 100 µg/mL, time not given, three freeze-thaw cycles): 97.1 ± 2.2%
COC(=O)c1ccc(-c2cn(Cc3cc(Cl)ccc3O[11CH3])nn2)cc1  volume of distribution (PET, Logan plot; rhesus monkey, hippocampus; dose not given, 40 min): 0.455 mL/cm³
CN1C(=O)c2cccc3c2C1=Cc1ccccc1N3Cc1cccc(NC2CCN([11CH3])CC2)c1  SUV (PET/CT; C57BL/6 mouse male, lung; intravenous, 5 min): 1.05
CCCC[C@H](NC(=O)CNC(=O)CNC(=O)CN1CCN(CC(=O)O)CCN(CC(=O)O)CCN(CC(=O)O)CC1)C(=O)N[C@H]1CC(=O)NCCCC[C@@H](C(N)=O)NC(=O)[C@H](Cc2c[nH]c3ccccc23)NC(=O)[C@H](CCCNC(=N)N)NC(=O)[C@@H](Cc2ccccc2)NC(=O)[C@H](Cc2c[nH]cn2)NC1=O [copper-64 labelled]  tissue uptake (female C57 mouse, B16/F1 melanoma, stomach; intravenous, 0.037 MBq, 0.5 h): 2.83 ± 0.84 %ID/g
Oc1ccc2ccccc2c1/N=N/c1ccc(/N=N/c2ccccc2)cc1  measured concentration (extracted rat blood QC samples; 0.2 µg/L, 12 h, room temperature, short-term stability): 0.22 µg/L
COc1ccc2cc(-c3ccc(-c4ccc(C)cn4)nc3)oc2c1  radiative decay rate constant (TCSPC; dioxane): 0.53 ns⁻¹
CC(=O)[CH](C(C)=O)[Pt-2]1([S+](C)C)[O]C(C)=CC(C)=[O+]1 (stereo not shown)  fecal excretion (atomic absorption spectroscopy, item: Pt; rat, feces; 72 h; relative to: dose): 9%
[11CH3]c1ccc2nc(C3CCC3)n(-c3ccc4[nH]ncc4c3)c2n1  absorbed dose (extrapolated from mouse; standard human, Lower large intestine wall): 5.5 µSv/MBq
N=C(N)NCCC[C@@H]1NC(=O)[C@H](Cc2c[nH]c3ccccc23)NC(=O)[C@@H](CC2CCCCC2)NC(=O)[C@@H]2CCCN2C(=O)[C@@H](NC(=O)CCc2ccccc2)CCCNC1=O  distribution rate constant k12 (C57BL/6J mice, plasma; intraperitoneal, 1 mg/kg, two-compartment model): < 0.001 h⁻¹
COC(=O)c1ccc2c(c1)NC(=O)/C2=C(\Nc1ccc2c(c1)CCN2C(=O)CN1CCOCC1)c1ccccc1  Vss relative to total body water (CD-1 mice, blood; intravenous): ~2.5
CCCC[C@H](NC(C)=O)C(=O)N[C@H]1CC(=O)NCCCC[C@@H](C(=O)N[C@@H](C(=O)N2CCC[C@@H]2C(N)=O)C(C)C)NC(=O)[C@H](Cc2c[nH]c3ccccc23)NC(=O)[C@H](CCCN=C(N)N)NC(=O)[C@@H](Cc2ccc3ccccc3c2)NC(=O)[C@@H]2CCCN2C1=O  haemoglobin (dog; day 1, start of treatment): 14.5 g/dL
COCCOCCOCCOCCOCCOCCOCCOCCOCCOCCOCCOCCOCCOCCOCCOCCOCCOCCOCCOCCOCCOCCNC(=O)CCC1(Cc2ccccc2)c2ccccc2-c2ccc(-c3sc(-c4c5c(c(-c6sc(-c7ccc8c(c7)C(CCC(=O)NCCOCCOCCOCCOCCOCCOCCOCCOCCOCCOCCOCCOCCOCCOCCOCCOCCOCCOCCOCCOCCOCCOC)(Cc7ccccc7)c7ccccc7-8)c7c6OCCO7)c6nsnc46)N=S=N5)c4c3OCCO4)cc21 (stereo not shown)  particle size (DLS and TEM; aqueous solution): 240 ± 30 nm
CCCCCCCCCCCC(=O)N[C@@H](CCCCN)C(=O)N[C@@H](CCCCN)C(=O)N[C@@H](CCCCN)C(=O)N[C@@H](CCCCN)C(=O)N[C@@H](CCCCN)C(N)=O  hydrodynamic radius (dynamic light scattering; self-assembled micelles; 25 °C): ~190 nm
C[C@H](NC(=O)c1ccc2c(c1)C(=O)OC21c2ccc(O)cc2Oc2cc(O)ccc21)C(=O)N[C@@H](CCCCN)C(=O)N[C@@H](C)C(=O)N[C@@H](CCCCN)C(=O)N[C@@H](C)C(=O)N[C@@H](CCCCN)C(=O)N[C@@H](C)C(=O)N[C@@H](CCCCN)C(=O)N[C@@H](C)C(=O)N[C@@H](CCCCN)C(=O)N[C@@H](C)C(=O)N[C@@H](CCCCN)C(=O)N[C@@H](C)C(=O)N[C@@H](CCCCN)C(=O)N[C@@H](C)C(=O)N[C@@H](CC(N)=O)C(=O)N[C@@H](C)C(=O)N[C@@H](CC(N)=O)C(=O)N[C@@H](C)C(=O)N[C@@H](CC(N)=O)C(=O)O  ratio of steady-state partition coefficient (bovine cartilage; +N over +F variant): 1.17

Excerpt of the above:
CC/C=C\C/C=C\C/C=C\C/C=C\C/C=C\CCCCOC(CC)C(=O)O (stereo not shown)  tissue concentration (14C radiolabel; Wistar rats male, muscle; oral, 100 mg/kg, 8 h): 4.8 µg/g
[11CH3]c1ccc2nc(C3CCC3)n(-c3ccc4[nH]ncc4c3)c2n1  absorbed dose (extrapolated from mouse; standard human, Lower large intestine wall): 5.5 µSv/MBq
